{"data": "Experimental data collected from several papers", "BTK": "Tyrosine-protein kinase BTK (BTK, Homo sapiens, UniProt Q06187)", "note": "Compare with care: the assays were run in different laboratories.", "sequence of UniProt Q06187 (whole entry, unmodified, looked up)": "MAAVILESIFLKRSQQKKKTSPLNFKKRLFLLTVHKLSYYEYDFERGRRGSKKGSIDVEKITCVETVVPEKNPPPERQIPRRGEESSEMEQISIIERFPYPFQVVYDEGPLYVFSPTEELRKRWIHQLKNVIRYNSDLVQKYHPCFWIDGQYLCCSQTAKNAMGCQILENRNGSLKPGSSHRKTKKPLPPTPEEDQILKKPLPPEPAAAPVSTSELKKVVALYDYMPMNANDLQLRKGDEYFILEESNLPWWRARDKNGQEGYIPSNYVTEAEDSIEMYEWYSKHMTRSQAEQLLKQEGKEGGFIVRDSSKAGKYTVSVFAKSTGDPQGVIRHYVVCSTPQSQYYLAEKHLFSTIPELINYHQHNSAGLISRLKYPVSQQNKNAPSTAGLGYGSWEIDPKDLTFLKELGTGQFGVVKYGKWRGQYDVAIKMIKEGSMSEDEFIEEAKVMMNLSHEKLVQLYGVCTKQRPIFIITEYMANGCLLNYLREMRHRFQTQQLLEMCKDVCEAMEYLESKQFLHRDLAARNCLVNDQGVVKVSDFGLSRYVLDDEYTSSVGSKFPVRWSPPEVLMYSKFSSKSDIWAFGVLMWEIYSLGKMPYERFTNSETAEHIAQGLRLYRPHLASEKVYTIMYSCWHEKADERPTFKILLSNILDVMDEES"}
{"Structure (SMILES)": "O=C(Cc1ccc(OCc2ccccc2)cc1)NC1(C(=O)O)CCN(C(=O)c2ccc(-c3cccc(Cl)c3)cc2)CC1", "target": "BTK", "assay": "enzyme activity, inhibitor", "setting": "10 µM", "quantity": "activity vs control", "result": "82%"}
{"Structure (SMILES)": "Cc1ccc(-c2c(/C=C(\\C#N)C(=O)NC(C)C)n(CCCO)c3ncnc(N)c23)cc1", "target": "BTK", "assay": "cell-free assay, competition with immobilised ligand", "setting": "1 µM", "quantity": "remaining binding", "result": "95%"}
{"Structure (SMILES)": "CCn1cc(C(=O)O)c(=O)c2c(N)c(F)c(NC3CCCCC3)cc21", "target": "BTK", "assay": "kinase activity", "setting": "0.1 µM, with: ATP at Km", "quantity": "inhibition", "result": "-12.3%"}
{"Structure (SMILES)": "CN1CCN(Cc2ccc(NC(=O)c3cccc(C#Cc4cnc(N)c5ncccc45)c3)cc2C(F)(F)F)CC1", "target": "BTK", "assay": "cell-free assay, competition with immobilised ligand", "setting": "50 nM", "quantity": "remaining binding", "result": "61%"}
{"Structure (SMILES)": "Cc1nc2c(F)cc(-c3nc(Nc4ccc(CNC(=O)CCCCCCC(=O)NO)cc4)ncc3F)cc2n1C(C)C", "target": "BTK", "assay": "enzyme activity, inhibitor", "setting": "1 µM", "quantity": "inhibition", "result": "75%"}
{"Structure (SMILES)": "COc1ccc(NC(=O)Nc2ccc3c(c2)C(=O)N(C(C)CO)CC(C)C(CN(C)Cc2ccc4c(c2)OCO4)O3)cc1 (stereo not shown)", "target": "BTK", "assay": "kinase activity, KinaseProfiler", "setting": "0.03 µM, species human", "scale": "baseline: control", "quantity": "remaining activity", "result": "98%"}
{"Structure (SMILES)": "Cc1ccc(-c2n[nH]cc2CNC(=O)C2(C#N)CC2)cc1", "target": "BTK", "assay": "cell-free assay, competition with immobilised ligand", "setting": "10 µM", "quantity": "remaining binding", "result": "20%"}
{"Structure (SMILES)": "C=CC(=O)Nc1cccc(-c2cnc3[nH]cc(C(=O)NC(C)(C)C)c3n2)c1", "target": "BTK", "assay": "enzyme activity, inhibitor", "setting": "0.1 µM", "quantity": "inhibition", "result": "29%"}
{"Structure (SMILES)": "Cc1cccc(O[C@H]2CCC[C@@H](C(C)CNCc3ccncc3)C2)c1 (relative stereo)", "target": "BTK", "assay": "kinase activity, kinome panel screening", "setting": "1 µM", "quantity": "inhibition", "result": "0%"}
{"Structure (SMILES)": "Cc1cccc(-c2ccc3nc(NC(=O)C4CCCCC4)nn3c2)c1", "target": "BTK", "assay": "enzyme activity, Dundee kinase panel", "setting": "10 µM", "quantity": "remaining activity", "result": "71%"}
{"Structure (SMILES)": "C=CC(=O)N1CCCC(n2c(=O)c3ncccc3n(Cc3ccc(Oc4ccccc4)cc3)c2=O)C1 (stereo not shown)", "target": "BTK", "assay": "cell-free assay, competition with immobilised ligand", "setting": "1 µM", "quantity": "remaining binding", "result": "68%"}
{"Structure (SMILES)": "NC(=O)[C@@H](O)C[C@H]1CCc2sc3ncnc(O[C@H]4CC[C@H](N5CCOCC5)CC4)c3c21", "target": "BTK", "assay": "enzyme activity, inhibitor", "setting": "10 µM", "quantity": "inhibition", "result": "30%"}
{"Structure (SMILES)": "CCN1CCN(Cc2ccc(NC(=O)c3ccc(C)c(NC(=O)c4cncc(-c5cccs5)c4)c3)cc2C(F)(F)F)CC1", "target": "BTK", "assay": "binding, competition with immobilised ligand", "setting": "1 µM", "quantity": "remaining binding", "result": "1%"}
{"Structure (SMILES)": "CNC1C[S+]2CC[S+]3CC[S+](C1)[Ru-4]321([N]=C=S)[n]2c3ccc(OC)cc3c3c4c(c5cc(F)c[n+]1c5c32)C(=O)NC4=O (stereo not shown)", "target": "BTK", "assay": "KinomeScan", "setting": "0.1 µM", "scale": "baseline: untreated", "quantity": "remaining binding", "result": "98%"}
{"Structure (SMILES)": "CN1CCN(c2ccc(Nc3ncc(Cl)c(Nc4ccccc4P(C)(C)=O)n3)cc2Br)CC1", "target": "BTK", "assay": "enzyme activity, inhibitor", "setting": "0.1 µM", "quantity": "inhibition", "result": "0%"}
{"Structure (SMILES)": "O=C=[N][Ru-4]123([n]4c5ccc(O)cc5c5c6c(c7cc(F)c[n+]1c7c54)C(=O)NC6=O)[S+]1CC[S+]2CC[S+]3CC1 (stereo not shown)", "target": "Tyrosine-protein kinase BTK (BTK, Homo sapiens, UniProt Q06187, R28H)", "assay": "enzyme activity", "setting": "100 nM, human enzyme, with: 10 µM ATP", "scale": "baseline: untreated", "quantity": "remaining activity", "result": "112%"}
{"Structure (SMILES)": "Cc1cccc(-c2ccc3nc(NC(=O)C4CCCO4)nn3c2)c1 (stereo not shown)", "target": "BTK", "assay": "enzyme activity, Dundee kinase panel", "setting": "10 µM", "quantity": "remaining activity", "result": "63%"}
{"Structure (SMILES)": "CNS(=O)(=O)Nc1nccc(Cc2c(C)c3ccc(Oc4ncccc4F)cc3oc2=O)c1F", "target": "BTK", "assay": "binding, competition with immobilised ligand", "setting": "10 µM", "quantity": "remaining binding", "result": "100%"}
{"Structure (SMILES)": "COc1c(OCCCN2CCOCC2)ccc2c1N=C(NC(=O)c1cnc(N)nc1)N1CCN=C21", "target": "BTK", "assay": "kinase activity, inhibitor", "setting": "1 µM", "scale": "baseline: untreated control", "quantity": "remaining activity", "result": "107%"}
{"Structure (SMILES)": "C=CC(=O)N1CCc2ccc(-n3c(=O)ccc4cnc5ccc(-c6cnn(C)c6)cc5c43)cc21", "target": "BTK", "assay": "KINOMEscan", "setting": "1 µM", "scale": "baseline: DMSO control", "quantity": "remaining binding", "result": "5.1%"}
{"Structure (SMILES)": "CC(C)=CC1OC(C)(C)C2C=C3C(=O)C(Cl)=CC(O)C3C3C(O)C4OC4C(=O)C132 (stereo not shown)", "target": "BTK", "assay": "cell-free assay, competition with immobilised ligand", "setting": "10 µM", "quantity": "remaining binding", "result": "98%"}
{"Structure (SMILES)": "Cc1cnc2nc1Nc1cccc(c1)COC/C=C/COCc1cc(ccc1OCCN1CCOCC1)N2", "target": "BTK", "assay": "cell-free assay", "setting": "0.1 µM", "quantity": "remaining signal", "result": "50%"}
{"Structure (SMILES)": "C[C@H]1CN(C(=O)c2cn(-c3ccnc(N)n3)c3cc(C#CC4(O)CCCCC4)ccc23)CCN1", "target": "BTK", "assay": "enzyme activity, inhibitor, FRET", "setting": "1 µM", "quantity": "inhibition", "result": "3%"}
{"Structure (SMILES)": "COc1cc(Nc2nccc(-c3cnn4nc(OC)ccc34)n2)cc(C(F)(F)F)c1", "target": "BTK", "assay": "binding, competition with immobilised ligand", "setting": "1 µM", "quantity": "remaining binding", "result": "100%"}
{"Structure (SMILES)": "O=C(Nc1ccc(Oc2ncnc3[nH]cc(-c4ccccc4)c23)c(F)c1)c1c2n(n(-c3cc(F)ccc3F)c1=O)CCCC2", "target": "BTK", "assay": "enzyme activity, inhibitor", "setting": "0.5 µM", "quantity": "inhibition", "result": "26%"}
{"note": "Repeated from above:"}
{"Structure (SMILES)": "Cc1cccc(-c2ccc3nc(NC(=O)C4CCCO4)nn3c2)c1 (stereo not shown)", "target": "BTK", "assay": "enzyme activity, Dundee kinase panel", "setting": "10 µM", "quantity": "remaining activity", "result": "63%"}
{"Structure (SMILES)": "O=C(Cc1ccc(OCc2ccccc2)cc1)NC1(C(=O)O)CCN(C(=O)c2ccc(-c3cccc(Cl)c3)cc2)CC1", "target": "BTK", "assay": "enzyme activity, inhibitor", "setting": "10 µM", "quantity": "activity vs control", "result": "82%"}
{"Structure (SMILES)": "CCN1CCN(Cc2ccc(NC(=O)c3ccc(C)c(NC(=O)c4cncc(-c5cccs5)c4)c3)cc2C(F)(F)F)CC1", "target": "BTK", "assay": "binding, competition with immobilised ligand", "setting": "1 µM", "quantity": "remaining binding", "result": "1%"}
{"Structure (SMILES)": "C=CC(=O)N1CCCC(n2c(=O)c3ncccc3n(Cc3ccc(Oc4ccccc4)cc3)c2=O)C1 (stereo not shown)", "target": "BTK", "assay": "cell-free assay, competition with immobilised ligand", "setting": "1 µM", "quantity": "remaining binding", "result": "68%"}
